Measured values gathered from unrelated publications.
Each numbered part is a random draw from the data of one study; scales do not carry over between parts. Positions count from the first letter of the parent shown.

Sample 1 — technique: protein binding microarray; molecule type: double-stranded DNA, one strand shown; medium: in vitro; tested at: not given; baseline: not given; reading: higher = stronger binding
Target: Histone acetyltransferase KAT6A, winged helix 2, GST fusion (KAT6A, Homo sapiens, UniProt Q92794, residues 85-181)
Setting: 8-mer, flanks averaged, mean of 2 arrays, mostly near background
Target sequence (chain): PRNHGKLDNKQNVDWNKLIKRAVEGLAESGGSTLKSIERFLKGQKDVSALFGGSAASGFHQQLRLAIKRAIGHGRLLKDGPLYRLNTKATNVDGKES
Oligonucleotide | E-score
AGTGTAGA | -0.169
CATTCTCC | -0.0377
CAGTAACC | -0.0144
CGTGACCA | -0.0688
TAGTCGGA | -0.0746
ATCATTAC | 0.00914
GCATCCAC | 0.129
CATTGTAG | -0.0674
GACGGCAA | 0.14
GGTTTACA | -0.0618
GTGTACGA | 0.127
AGAAGTGC | -0.0376
CCACGGCA | 0.0757
ATACGGTG | 0.0352
CTGGATCC | 0.0379
GCCAGTTA | -0.0459
ACTTTACG | -0.131
AAAGTGGC | 0.0348
TTAACCAA | 0.00176
AGTCACAA | -0.0423
GGCGATGA | -0.0772

Sample 2 — technique: RNAcompete; molecule type: RNA; medium: in vitro; tested at: 20 nM; setting: 7-mer, probes averaged, single round; baseline: mean of 7-mers; reading: higher = stronger binding
Target: PABPC1L2, full length, GST fusion (mouse, UniProt A0ABA7IW68)
Target sequence (chain): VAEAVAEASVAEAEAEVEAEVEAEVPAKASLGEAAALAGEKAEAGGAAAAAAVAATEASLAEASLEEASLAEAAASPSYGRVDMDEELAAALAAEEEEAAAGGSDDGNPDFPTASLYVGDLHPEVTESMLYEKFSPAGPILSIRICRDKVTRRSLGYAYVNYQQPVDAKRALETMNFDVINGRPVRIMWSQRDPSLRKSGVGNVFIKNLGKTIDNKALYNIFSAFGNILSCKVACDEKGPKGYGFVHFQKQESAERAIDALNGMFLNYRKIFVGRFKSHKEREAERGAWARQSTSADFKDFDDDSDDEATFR
Oligonucleotide | 7-mer Z-score
GGGUGCG | 0.427
ACAAGCU | -0.00652
ACAGGAA | 0.276
CAUUCGC | -0.295
GUGCUAA | 0.137
UGCUUGU | -0.454
AAAGAUG | 1.85
UACUUAG | -0.264
CGUGUCA | -0.338
CCAUACG | -0.204
AGGGAAG | 0.323
UCAAAAG | 0.769
UAUGAUC | -0.229
UCAUAGC | -0.197
CUCCGAC | -0.298
CAAAGUG | 0.263
GGUGAAU | -0.0138
GUCCUGU | -0.296

Sample 3 — technique: protein-binding microarray; molecule type: double-stranded DNA, one strand shown; medium: in vitro; tested at: 250 nM; setting: 60-bp whole probe; with: salmon DNA 0.4 mg/ml; baseline: random background probes; reading: higher = stronger binding; shared flanks, not repeated: GCCTAGCAC … GTCTTGATTCGCTTGACGCTGCTG
Target: Interferon regulatory factor 5, full length, phosphomimetic (IRF5, Homo sapiens, UniProt Q13568-2, residues 1-514, K96S/S451D/S453D/S456D/S462D)
Oligonucleotide | log fluorescence [z-score]
TTAGATTTCAGTTTCGATAAGTGCTAG | 10.1
TCATCTTTTCATTTTCTACTGTGCTAG | 2.25
GCGGGAGAAAGCAAGCCCAGGTGCTAG | -0.0878
GACGTACTGGACACTGGGGACGTGCTA | -0.534
GACGATTTCGGGACTGGACACGTGCTA | 1.58
TTAGGTAGCGACTTTCGGTTAGTGCTA | 9.54
GACGATCGCAGTATCGAGACGTGCTAG | 1.19
GAATGATTACATATATGTTGGTGCTAG | 0.363
TTAGGACTGGGACTGGTTTAGTGCTAG | -0.451
TTATATCTCAGTTTCGATTAGTGCTAG | 9.53
TTCTCTATTGCTTTCTCTTTGTGCTAG | 2.95
GTGCCCGCTGCTTCCGGTGCGTGCTAG | 0.129
GACGGTACCCTACTGCTGACGTGCTAG | -0.326
GACGGTGTCGGGTATCGGGACGTGCTA | 0.229
GACGTACTGGGACTGGGGACGTGCTAG | -0.589
TCAACTTTAACTTATTCTACTGTGCTA | 0.876
TTCACTTTCTTTAACTCATTGTGCTAG | 3.48
GACGGAATGGACTTTCGGGACGTGCTA | 4.78
TTAGGACTGGGTCTCGATTAGTGCTAG | -0.00613
GACGGTTTCGGGACTGGGCACGTGCTA | 4.75
AACGAACTGAGACTGGAGACGTGCTAG | -0.217
GACGGTTTCGGAATCGGGACGTGCTAG | 6.03
TTAGATTTCTGGTATCGATTAGTGCTA | 6.28
TTAGAACTGAGTGTCGATTAGTGCTAG | 0.393
TCAAATATATGTATATAACTGTGCTAG | 0.679

Sample 4 — technique: RNA Bind-n-Seq; molecule type: RNA; medium: in vitro; tested at: 365 nM; baseline: no-protein control; reading: higher = stronger binding
Target: RNA binding protein fox-1 homolog 2, RRM domain, GST-SBP tag (RBFOX2, Homo sapiens, UniProt O43251-10, residues 100-194)
Setting: natural RNA segment, single round, ends assumed
Shared flanks, not repeated: GGGAGUUCUACAGUCCGACGAUC … UGGAAUUCUCGGGUGCCAA
Residues (chain): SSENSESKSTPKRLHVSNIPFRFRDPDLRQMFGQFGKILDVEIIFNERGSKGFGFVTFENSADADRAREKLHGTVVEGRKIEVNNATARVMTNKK
Oligonucleotide | RBNS enrichment (R)
UGGGGUCUCCUGCUUCAAGCAGGCUUCUCCCACUCCAAUCCCCUGCCCCAUCUCCCCAUAGCCUGAGUGAUGAGGUGGCCCCAGAGCUGAUCUCUGCUGCUGUGUCUUUA | 0.472
CACAAGGCGCUCAUGGGUUUCAGGGAGUGGGAGGGACUGUUUUUCUCCGUUGCUCUUCCUCCUUGUUUUCUGGGUGUUUUCCUGCAGAGAUCUUUUGGGUUUAUUUUGAG | 1.63
CUUGGGCCUGCACUAGGCUUUAGAAAUGACAGUUUGUGAGUCUAUGAAUAAUUAUUUUUUAAAAAACUUUGUUGUCUCUGUUCUGAGUCUGAAUUCCUUGCAGAUGGUAG | 0.548
CUCUUGUGGCCACACUAGGUUGUCGCCUUUCAGGCAGUGUCCCGCCACCUUUGCUUCCCGCUCCUUCUGGACAUUCCAGAGCCCUGCACCAAACCCUUACUUGGUGUCUG | 0.613
CCCUUUAACAAGUUGAGUAAAAAUAAAAGGUAUUUUUUAGUCAAUGUGUUCCAUGAUUUUGCUUAAAUUAAUACUUUUAAGUAAUGGAACUUUUUUCAAAGGCAAAUUUA | 0.811
UGGGUCUUGGGAGCUCUUGCCUUCACCUGUGGAUCCACUUAAGACAUUGUGGUCUGAAGCUCAGGCCACAGUGCCUGCCUCGUUCCCUCAGCCUCCCUCCCAGGGCUCCA | 0.401
GAGAAGAGAGAUGGCCUGAGCAGGAACGGAGCUCUCCUCAGUUGGAAGCAAUGUGGGGCGCUGCGAGCCCCUCCCAGUCCUCUAGAGACUGUCUCCUUUCUGCCUCUGGU | 0.49
UCAUCUCUCGGUACAAAGGAGUUACUAUCAUAUAAAGACUCAUCUGAAAGAAUUGUUAAUGAAACCUCAUUCUUUAUGUUUAUCUCAGUGUCUCUUUACAUGGAUAUUUU | 0.317
ACCUUAAGAAGGCACAUAUAUAAUAGAGAUCAGGAAGAAAUGAAGAAUUCUAUUUUUGCUGAAUAUGCCAAAGAAUCAAAAGCCAUGGCUAUUAAGACAGAUGUGGAUGU | 0.272
CCUAUUCCAUCAAAACCCAGUUUAACUCGGAGGAGCAGUGGACAAAAGCGCUCAAGUUCAUGCUGACCAAUCUCAAGUGGGGUCUUGCCUGGGUGUCCUCACAGUUCUAU | 0.632
CUGUGAAACGCCAUGAUUGUCUAAACAAGUCUCCCCUCUGCCCUGAUCCCUUUGUACCAAGUCAAUGGCCACUUGAAAGUUCUGUGGACUCCCUUGUGGCCUCAACCCGU | 0.447
CUUUUUCUAUUUUCUGAUUUAAAAGUCGCUUUUGAAUAUGACCAUGAGAAACCAAGAAAUGCUGCUUGUGUGGUGCUCUGCUUCCUGAGGAUUUGGCUGGAAGGGGAUUC | 0.881

Sample 5 — technique: RNA Bind-n-Seq; molecule type: RNA; medium: in vitro; tested at: not given; baseline: input RNA pool; reading: higher = stronger binding
Target: RING finger protein unkempt homolog, zinc fingers 1-6, GST-SBP tag (UNK, Homo sapiens, UniProt Q9C0B0, residues 30-357)
Setting: RNA with constant flanks, human and mouse sites, ends assumed
Shared flanks, not repeated: GGGAGUUCUACAGUCCGACGAUC … CAACAGAGGAUUGAGCAUCA
Construct (chain): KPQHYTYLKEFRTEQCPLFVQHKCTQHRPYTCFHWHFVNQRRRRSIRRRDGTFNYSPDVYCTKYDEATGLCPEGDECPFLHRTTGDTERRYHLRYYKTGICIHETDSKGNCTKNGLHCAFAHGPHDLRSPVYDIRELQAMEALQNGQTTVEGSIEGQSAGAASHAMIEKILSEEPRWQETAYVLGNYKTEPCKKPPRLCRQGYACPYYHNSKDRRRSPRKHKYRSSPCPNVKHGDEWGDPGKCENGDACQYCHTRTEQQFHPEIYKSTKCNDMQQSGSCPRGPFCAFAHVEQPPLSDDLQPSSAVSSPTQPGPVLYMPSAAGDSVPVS
Oligonucleotide | bound/input enrichment [ratio]
GAGCCAGUUGUGGCAGAGACAGUGGAAGAAGUGAAAAAAGAACCUGUUUUGGUGUGUCCACCCUUACGAAGCCGAGCAUACACACCGCCCAGUGAUCUCCAGAGUCGCUUGGAAUCUCAU | 0.179
GGAGGGUCGCAGUCCCUGCAGCCAGCCCCAGCCAGCGACCUGAACCUGGAGGCUUCCGAGGCAAUGAGUUCCGAUUCUGAAGAGGCAUUUGAGACCCCGGAGUCAACGACCCCUGUCAAA | 0.0755
AUCAGAAGAGUGAAAUCUCAUAAAGAAUUUUUGAAUAAAACAACACACCAGCUUUUAUUUGUUAGGCAUCAGUUCAAAAUAGCUUUCUUCAGUGAGUUGAAACAAGAUACACAAAAUGCG | 0.892
GGCCGACUCUACCAAGUAGAAUAUGCUUUUAAGGCUAUUAACCAGGGUGGACUUACAUCUGUUGCUGUCAGAGGAAAGGACUGUGCAGUUAUUGUCACACAGAAGAAAGUACCCGACAAA | 0.825
CUGAAAUCUGUGGAGAGCACAUCUCCAGAGCCAUCAAAGAUCAUGUUGGUAGAGCCCCCAGUAGCAAAAGUGUUAGAGCCUUCAGAAACCCUUGUGGUAUCAUCAGAGACACCUACUGAG | 0.363
AAGGAUUCGUCGCAUCCAGUGGAUUUUCUGGAUGCAUUCAGAACGUUUUACAUGGAUGGACUAUUUACUGAUAUUACCCUUCAGUGUCCUUCAGGCAUAAUCUUCCAUUGUCACCGAGCU | 0.176
ACGAGCGUAGCUUCCAGAAUUGGAGCCCAGGCCCUCCCGCGCAGCUCGGCUGCAGGUUUGGCUUGUCAGAGGCUGAGAAGGGACGGAGGAGGCUCGGGUCCCCCCCACCCCAUCACAGCU | 0.155
CCGCUCCAUUUCUCCAGUUCGGCUGCCGCCGCCACUGCUGCUCAGCUGGUGUCGGUGCCGCGCGUUUCCCCCACGUCGUCCCCGCAGCCUAUGGCCCAGGCCGCCUUGGGUAUUUCUGCU | 0.166
AUCCGGAUGAGCACCGGGCACAUGGAGGGCAACCUGCAGCUGCUGUACGUGCUGCUCACAGACUGCUAUGUCUACCUGCUCCGGAAAGGGGCCACAGAGAAGCCAUACCUGGUGGAAGAG | 0.0888
GAAGAUCACUUGGCAGUGAAGCAUUUUUCAGUUGAAGGACAGUUGGAAUUCAGAGCCCUUCUAUUUGUCCCACGACGUGCUCCUUUUGAUCUGUUUGAAAACAGAAAGAAAAAGAACAAC | 0.105
UCCACAUAUGUACGUGUAUAUAAUUAUACAUAUAUAUAUAUCUAUUUUGCCCAGGUCUGGGUUUCGUUUUUACCCAGACCCUGGCACUCCCUGUCCACUGUGUGUGUGAUCAUGCUGGGA | 0.126

Sample 6 — target: CCNB3, cyclin fold, Cln2 fusion (human); technique: yeast growth competition, sequencing; medium: yeast; setting: weak parent motif; baseline: not given; reading: higher = stronger binding
Starting sequence: DBF4 docking peptide (human); DDIVSKLVFDFVE
Variant | normalised enrichment score
S5A | -0.241
V4A | -0.0019
D1A | 0.317
D2A | 0.103
V12A | -0.0419
F11A | 0.0999
K6A | 0.141
